# Assay results from different studies.
# Each line is one published result; not all experiments were run side by side. ± marks the error that the study gave.
SMILES,assay,test system,conditions,tissue uptake [%ID/g]
CCCC[C@H](NC(=O)CNC(=O)CNC(=O)CN1CCN(CC(=O)O)CCN(CC(=O)O)CCN(CC(=O)O)CC1)C(=O)N[C@H]1CC(=O)NCCCC[C@@H](C(N)=O)NC(=O)[C@H](Cc2c[nH]c3ccccc23)NC(=O)[C@H](CCCNC(=N)N)NC(=O)[C@@H](Cc2ccccc2)NC(=O)[C@H](Cc2c[nH]cn2)NC1=O [gallium-67 labelled],,"female C57 mice, B16/F1 melanoma, kidneys","intravenous, 0.037 MBq, 24 h",5.6 ± 1.24
O=C([O-])CN1CCN(CC(=O)[O-])CCN(CC(=O)[O-])CCN(CC(=O)[O-])CC1.[64Cu+2],,"healthy athymic nude mice, liver","intravenous, 4 h",1.64
NC12CNCCNCC(NCc3ccc(CNC(=O)CCCC(=O)NCc4ccc(-c5nncnn5)cc4)cc3)(CNCCNC1)CNCCNC2.[64Cu+2],,"athymic nude mice, SW1222 xenograft, heart","24 h post-injection, 24 h pretargeting interval, with: huA33-TCO pretargeting",0.81 ± 0.04
CCCC[C@@H]1NC(=O)[C@@H](NC(=O)[C@H](CCC(=O)O)NC(=O)CNC(=O)CN2CCN(CC(=O)O)CCN(CC(=O)O)CCN(CC(=O)O)CC2)CCCCNC(=O)C[C@@H](C(N)=O)NC(=O)[C@H](C(C)C)NC(=O)[C@@H]2CCCN2C(=O)[C@H](CCCNC(=N)N)NC(=O)CNC(=O)[C@H](Cc2c[nH]c3ccccc23)NC(=O)[C@H](CCCNC(=N)N)NC(=O)[C@@H](Cc2ccccc2)NC(=O)[C@H](Cc2c[nH]cn2)NC(=O)[C@H](CCC(=O)O)NC1=O [gallium-67 labelled],,"C57 mice with B16/F1 melanoma, brain","intravenous, 0.5 h",0.1 ± 0.03
O=C([O-])CN1CCN(CC(=O)[O-])CCN(CC(=O)NCCc2ccc3c(c2)C2C=CCC2C(c2cc4c(cc2Br)OCO4)N3)CCN(CC(=O)[O-])CC1.[111In+3] (stereo not drawn),,"mice with Hec50 tumour xenograft, muscle","2 h, with: G-1 5 µg blocking",0.15 ± 0.03
CCCC[C@H](NC(=O)CNC(=O)CNC(=O)CN1CCN(CC(=O)O)CCN(CC(=O)O)CC1)C(=O)N[C@H]1CC(=O)NCCCC[C@@H](C(N)=O)NC(=O)[C@H](Cc2c[nH]c3ccccc23)NC(=O)[C@H](CCCNC(=N)N)NC(=O)[C@@H](Cc2ccccc2)NC(=O)[C@H](Cc2c[nH]cn2)NC1=O [gallium-67 labelled],,"female C57 mice, B16/F1 melanoma, bone","intravenous, 0.037 MBq, 2 h",0.91 ± 0.56
O=C([O-])c1cccc(CN(CCN(Cc2cn(Cc3ccccc3)nn2)Cc2cccc(C(=O)[O-])n2)Cc2cn(Cc3ccccc3)nn2)n1.[64Cu+2],,"healthy athymic nude mice, lung","intravenous, 4 h",8.24
CN1C(=O)[C@@H](Cc2ccc(O)c(I)c2)NC(=O)CNC(=O)[C@H](Cc2ccc3ccccc3c2)NC(=O)[C@H](CCCNC(=N)N)NC(=O)[C@H]1CCCNC(=O)c1ccc(CNC(=O)CN2CCN(CC(=O)O)CCN(CC(=O)O)CCN(CC(=O)O)CC2)cc1 [lutetium-177 labelled],item: 177Lu radioactivity,"female CB-17 SCID mice, Daudi xenograft, heart","intravenous, 0.16 nmol per mouse, 48 h",0.11 ± 0.01
CC(C)[C@H](NC(=O)[C@@H]1CCCN1C(=O)[C@H](CCCNC(=N)N)NC(=O)[C@H](CS)NC(=O)[C@H](Cc1c[nH]c2ccccc12)NC(=O)[C@H](CCCNC(=N)N)NC(=O)[C@@H](Cc1ccccc1)NC(=O)[C@H](Cc1c[nH]cn1)NC(=O)[C@H](CCC(=O)O)NC(=O)[C@H](CS)NC(=O)[C@H](CS)NC(=O)CNC(=O)[C@@H]1CC(=O)N[C@@H](CCCNC(=N)N)C(=O)NCC(=O)N[C@@H](CC(=O)O)C(=O)N[C@H](Cc2ccc(O)cc2)C(=O)N1)C(N)=O [technetium-99m labelled],,"C57 mice B16/F1 melanoma female, blood","iv, 2 h, with: NDP-MSH 10 µg co-injected",0.44 ± 0.27

# Some of these lines once more:
SMILES,assay,test system,conditions,tissue uptake [%ID/g]
O=C([O-])CN1CCN(CC(=O)[O-])CCN(CC(=O)NCCc2ccc3c(c2)C2C=CCC2C(c2cc4c(cc2Br)OCO4)N3)CCN(CC(=O)[O-])CC1.[111In+3] (stereo not drawn),,"mice with Hec50 tumour xenograft, muscle","2 h, with: G-1 5 µg blocking",0.15 ± 0.03
